Results of several laboratories.
Each numbered part is a random draw from the data of one study; scales do not carry over between parts.

Set 1
Target: RNA binding protein fox-1 homolog 2, RRM domain, GST-SBP tag (RBFOX2, Homo sapiens, UniProt O43251-10, residues 100-194)
Method: RNA Bind-n-Seq
Form: RNA
Matrix: in vitro
Tested at: 365 nM
Notes: natural RNA segment, single round, ends assumed
Reference: no-protein control
Direction: higher = stronger binding
Measurement: RBNS enrichment (R)
Shared flanks, not repeated: GGGAGUUCUACAGUCCGACGAUC … UGGAAUUCUCGGGUGCCAA
Residues (chain): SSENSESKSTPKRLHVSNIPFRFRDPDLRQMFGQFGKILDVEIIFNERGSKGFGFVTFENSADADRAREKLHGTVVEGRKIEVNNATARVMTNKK
ACUGGCCCCAAGAACUGAUAAGACUCCAGUGGGGGACCACCACAUUCAUAGCCCCGUCACAGGAAGUGGGAGAUGCUCCUUUUUGUCCCAGACUGGAAAUCCAUCACAUC: 0.623
GGUGGGAGGGCGCUCCUGUUCCCAUCUCUGUGUUCCCUGGAGGCAGGUAUCACAAAGCAUUUGUGAAUUGCUUUAGGUGCAGGGACACCACCCACUCAGGACUCUUCCCC: 0.296
GUCCUUGUUGGCUGAGGGCAGGACCUUGUAACCCUCUUCCAUGCACAACUUGCACACCCCCUGUUCCCUCACUGUGUGCCCAACCUCUUCCUUUUUCCUGGGAUUCUUUA: 1.46
UAAUGCAAAUGUUUCAAAACUGGGUUUCUGAUAUUUGUAAAUGUGUUUCUUUAUUAGAUAAGAGUGUAUUACCAUUAAAGUCAUUAGUAUAAUAUUGCUUUCAAAAAGAA: 0.637
GCCUAGGUCCCCCAAGCAUGGGGGACCCCUUCCCACAUAUAAGUUGAGAAGGUGCCUGCCAUAGCCAGGAGCGCAUCUCAAUGGAAACAUCACUGGGGUCACUUGGGAAG: 0.207
UGCGUCCAAGACUUACGGGUGGUUUAGGGGAAAGUGCUAGCAACAGUGUCAAUGUCAUUGUUAACUAUAUUUCAUAUUUGAGGUCUCAUUGUUUUCAAAUAAACAGUGUU: 0.552
UAGGUAUUUUUCACUGGCCCAAAGUAUUGCAUUCCCUUAACAGCAAGCACAAGUUCUCUAUAUCACUUGUUUUUUGUUGUUGUUGUUGUUGUCGUCGUUGUUUUGAGACG: 1.09
CUAUAAGUGAGACACUGUGCUGCACUGGCUGAAGACUUAAUGCUGUUACUCUAGGUAGUUGGAUCCCUUGAUGGUGGGGACUGUCUUUACUAAAGCUACAUCAGGCCUAC: 0.454
GGAACUAGCCUUGUGUCUAUGAGGGCACCCUUCAGCUCACUCCACCCCCCAGGUAGACAGGUGCAUUUUGACCCUUCUGGACAGAAGAAACAAUGUGUUUUCCACCCCAC: 0.661
CAAUCUAUGGGACUAGGGGGAUUGGCAUCAAGUUGACACCCUUGAACCUGCUAUGGCCUUCAGCAGUCACCAUCAUCCAGACCCCCCGGGCCUCAGUUUCCUCAAUCAUA: 0.461
CAAAUUGUGCUAUUACUCCAAGGUCCAACUUUUCCAGUGCAUUACAUGGUAUUGUAUAUCAGUGGAGAAAUGUAUUAUUUCCAUGAUCAAAUGUAGUCUCUGUUAAGGUC: 0.834
GUGUGGUGGUCUCCAUGGCAACUUGGAGCCAGCCAGGAUGGGGUGGGGAGCGGUGGCACUCGUGGGAGGGAGAGGACCCCCGCCCACAUCCUCCUUCCCCAGGACCUGAG: 0.427

Set 2
Target: RING finger protein unkempt homolog, zinc fingers 1-6, GST-SBP tag (UNK, Homo sapiens, UniProt Q9C0B0, residues 30-357)
UniProt Q9C0B0, sequence (30-357, looked up): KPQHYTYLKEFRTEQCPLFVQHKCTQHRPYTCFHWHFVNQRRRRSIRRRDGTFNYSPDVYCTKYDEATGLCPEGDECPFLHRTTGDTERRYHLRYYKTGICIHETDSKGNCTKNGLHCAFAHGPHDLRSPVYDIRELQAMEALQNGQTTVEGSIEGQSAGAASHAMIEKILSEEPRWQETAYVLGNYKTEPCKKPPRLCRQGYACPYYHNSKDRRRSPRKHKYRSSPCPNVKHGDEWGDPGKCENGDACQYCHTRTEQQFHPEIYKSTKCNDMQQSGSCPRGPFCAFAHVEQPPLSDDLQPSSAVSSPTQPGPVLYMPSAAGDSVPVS
Method: RNA Bind-n-Seq
Form: RNA
Matrix: in vitro
Tested at: not given
Notes: RNA with constant flanks, human-mouse chimeric sites, ends assumed
Reference: input RNA pool
Direction: higher = stronger binding
Measurement: bound/input enrichment
Shared flanks, not repeated: GGGAGUUCUACAGUCCGACGAUC … CAACAGAGGAUUGAGCAUCA
GAUGAUAAUCACACAAACAAGUCACUGUUACAUGACCAGCCUUGGGAUUCUUUUCCUGAUUAGUAUUCUCCCUGGAACCACUAGCCAAGGGGAAUCAAGACGACAAGAACCCGGGGACUU: 0.189 ratio
AUGGAAAAGGAUUCUCUGCCCCGCUUUGUGCGCUCUGAAUUUUAUAAGGAGCUAAUCAAGUAGUCAUCUGGUCAGGCUUCCAAAAGUUGCCCUGUGAUAUUUCCUCCAUCCUUUGUAGCA: 0.172 ratio
GUAGCUGGCCAUUAGGAAGAAUGCUGAAUUUCAGUCACUUGCUGAUGACUUCUGAUGUCCCAGCAAAUGUUGGCAUUGUUGACUGCUGAGAAGAUACUUCUGAGGACCCACGUCUAAGGU: 0.244 ratio
UUAAACACCAAGCUGAUGGACUCUGAUGGCCUCCAUCUCUCAGGCACGUGUGCCUUCUCUUAGUCCCUGUUUUCGGGAUGUUAUGAAUCUCAGUACUGUGGUUUGAAAGCAGUUAUGUUG: 0.234 ratio
GAGCCCAGUCGGCAGUUUGUAAAGGACUCAAUUCGGCUGGUUAAAAGAUGCACUAAACCCGACAGAAAAGAAUUCCAGAAGAUUGCCAUGGCUACAGCUAUAGGAUUUGCUAUCAUGGGA: 0.201 ratio
UCAGAAGCUGUGCUGGGUCACUUUUCAUAUCCAGAUCCUUCACAGUGGACAGAUGAAGAACUGGGAAUCCCUCCUGAUGACGAGGACUGACACUGUAGACUCAGCCUACGAGUAGGAGCA: 0.31 ratio
UUUGUUUUUAUGCUAAGCACACGUGCUGGUGGUCUGGGCAUCAAUCUUGCAACUGCUGAUGUAGUCAUUUUAUAUGACUCAGAUUGGAAUCCGCAAGUUGAUCUUCAGGCUAUGGACCGU: 0.136 ratio
UGUAGUUGAUCCCCUGCGUGGCUGGGCCUUUUCUUUCUUUCCUUUAGGAAAAGCCUAAAGAUUAGGUUGUAAGAAAAACAGAAGCCAUGUUUCGAAGACCUGUGUUACAGGUAUUUCGUC: 0.138 ratio
UCUUAACUUAUUCAUUUAACUUAUUUUUAGCACUUAGUAAAUAUUGUUAGUCUUAGACAAUAGCUCACAUCUUUACAGAAGCAUGCCCUCCCUGUCCAUUUGUCUUAUAACAUGACCCAG: 215 ratio
AGAAUCUUGGGACUGUUUUACUUAAUUGGUCAUUGAUAGCUUAACAAGCAUGGAGAUGAGAUUAGAAAUCUUGACAUCAACAGGUAUUAAGCAGAAAAAACCAUGGCCACGUGUCUCCUG: 0.106 ratio
CUGAGGAUACCACUGAAGAGACCUUAAAAGAAUCAUUUGAGGGCUCUGUUCGUGCAAGAAUAGUCACCUGACCGGGAACUGGUUCUUCCAAAGGGUUUGGUUUUGUAAGACUUCAACGUG: 0.29 ratio

Set 3
Target: Interferon regulatory factor 3, full length, phosphomimetic (IRF3, Homo sapiens, UniProt Q14653, residues 1-427, S386D/S396D/S398D/S402D/T404D/S405D)
Method: protein-binding microarray
Form: double-stranded DNA, one strand shown
Matrix: in vitro
Tested at: 2540 nM top
Notes: 60-bp whole probe
With: salmon DNA 0.4 mg/ml
Reference: random background probes
Direction: higher = stronger binding
Measurement: fitted relative affinity
Shared flanks, not repeated: GCCTAGCAC … GTCTTGATTCGCTTGACGCTGCTG
Target sequence (chain): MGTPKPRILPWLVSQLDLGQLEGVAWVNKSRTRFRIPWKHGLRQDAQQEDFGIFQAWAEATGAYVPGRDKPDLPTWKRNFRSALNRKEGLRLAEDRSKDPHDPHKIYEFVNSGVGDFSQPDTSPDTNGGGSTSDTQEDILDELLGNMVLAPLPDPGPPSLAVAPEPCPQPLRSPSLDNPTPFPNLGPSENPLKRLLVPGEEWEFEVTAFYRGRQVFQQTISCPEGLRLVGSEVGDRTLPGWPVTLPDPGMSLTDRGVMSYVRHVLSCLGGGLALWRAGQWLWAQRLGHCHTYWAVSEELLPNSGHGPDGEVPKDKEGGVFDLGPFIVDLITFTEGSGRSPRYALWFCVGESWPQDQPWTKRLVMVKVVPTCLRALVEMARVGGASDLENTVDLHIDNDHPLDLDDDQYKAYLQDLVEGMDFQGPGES
TGAGAACTGGGGTTTCGATTAGTGCTA: 1.12 z-score
GACGAACTGAGTTTCGATACGTGCTAG: 3.09 z-score
GATGGTTTCGACTTTCGGGACGTGCTA: 3.66 z-score
GACGATTTCGGGTATCGAGTCGTGCTA: 2.05 z-score
GACGGACTGCTTCTCCTGATGTGCTAG: -0.498 z-score
GACGGACTGAGTTTCGGGACGTGCTAG: 1.88 z-score
GACGAACTGCGTTTCGAGACGTGCTAG: 0.862 z-score
TTATATCTCAGTCTCGATTAGTGCTAG: 0.946 z-score
GACGATATCAGTCTCGAGATGTGCTAG: 1.04 z-score
GACGGTATCGGGACAGGGGACGTGCTA: 1.5 z-score
TTAGGTATCGGACTGGGTTGGTGCTAG: 1.1 z-score
GACGGTCTCCGTCTCCTGACGTGCTAG: 1.89 z-score
TTAGGACTGGGTTTCGGTCAGTGCTAG: 1.89 z-score
TTAGGATTCCTTCTCCTTTAGTGCTAG: 5.36 z-score
GGTCCTTTCTGCCTCAGAGGGTGCTAG: 6.15 z-score
TTAGGACTGGGACTGGGTTTGTGCTAG: -1.01 z-score
CTGTACTTGAATTCTGCAAAGTGCTAG: 0.164 z-score
GACGGGCTGGACACTGGGGACGTGCTA: -0.97 z-score
TCTCTTTCCTTACTTCCCAATGTGCTA: 5.05 z-score
ATCAGTTTAATATCTAAGATTGTGCTA: 0.837 z-score
TTAGGTTCCGGTTTCAGTTAGTGCTAG: 5.89 z-score
TTAGGTCTCCTTTTCCTTTAGTGCTAG: 5.09 z-score
CCACTTTCCATTTCTGTTTTTGTGCTA: 8.46 z-score
TCAAATTTCCACTTTGAACTGTGCTAG: 2.08 z-score
GACGAAGTGAGTCTCGAGACGTGCTAG: -0.631 z-score

Set 4
Target: Histone acetyltransferase KAT6A, winged helix 2, GST fusion (KAT6A, Homo sapiens, UniProt Q92794, residues 85-181)
Method: protein binding microarray
Form: double-stranded DNA, one strand shown
Matrix: in vitro
Tested at: not given
Notes: 8-mer, flanks averaged, mean of 2 arrays, mostly near background
Reference: not given
Direction: higher = stronger binding
Measurement: E-score
Target sequence (chain): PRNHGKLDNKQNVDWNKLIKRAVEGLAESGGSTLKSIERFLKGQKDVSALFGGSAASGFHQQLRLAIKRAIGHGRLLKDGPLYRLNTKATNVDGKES
CTAGGCAA: -0.0154
ACCAGGGT: -0.0692
TCAACTGA: -0.0537
GGCGCTGA: -0.026
GTAGTATA: -0.0315
GTGAAGGA: -0.198
AAGTCTGA: -0.283
AGGAATGC: -0.0567
ACCCCGGC: 0.0659
CGTCCAGC: 0.1
ACTCGACG: 0.0732
CAAGACGG: 0.0451
TATCATGA: -0.00301
CGTCAGCC: 0.0375
GCCCACAC: 0.184
TATTTAGA: 0.0686
GCCCTACC: 0.0898

Repeated from above (set 1):
CAAAUUGUGCUAUUACUCCAAGGUCCAACUUUUCCAGUGCAUUACAUGGUAUUGUAUAUCAGUGGAGAAAUGUAUUAUUUCCAUGAUCAAAUGUAGUCUCUGUUAAGGUC: 0.834
CAAUCUAUGGGACUAGGGGGAUUGGCAUCAAGUUGACACCCUUGAACCUGCUAUGGCCUUCAGCAGUCACCAUCAUCCAGACCCCCCGGGCCUCAGUUUCCUCAAUCAUA: 0.461
UAGGUAUUUUUCACUGGCCCAAAGUAUUGCAUUCCCUUAACAGCAAGCACAAGUUCUCUAUAUCACUUGUUUUUUGUUGUUGUUGUUGUUGUCGUCGUUGUUUUGAGACG: 1.09
ACUGGCCCCAAGAACUGAUAAGACUCCAGUGGGGGACCACCACAUUCAUAGCCCCGUCACAGGAAGUGGGAGAUGCUCCUUUUUGUCCCAGACUGGAAAUCCAUCACAUC: 0.623
GGUGGGAGGGCGCUCCUGUUCCCAUCUCUGUGUUCCCUGGAGGCAGGUAUCACAAAGCAUUUGUGAAUUGCUUUAGGUGCAGGGACACCACCCACUCAGGACUCUUCCCC: 0.296
UAAUGCAAAUGUUUCAAAACUGGGUUUCUGAUAUUUGUAAAUGUGUUUCUUUAUUAGAUAAGAGUGUAUUACCAUUAAAGUCAUUAGUAUAAUAUUGCUUUCAAAAAGAA: 0.637
